{"data": "Published values of several laboratories", "note": "A part holds a random share of what one study measured."}
{"data": "Study 1", "target": "Sal-like protein 4, full length isoform B (SALL4, Homo sapiens, UniProt Q9UJQ4-2, residues 1-616)", "technique": "universal PBM", "molecule type": "double-stranded DNA, one strand shown", "sample": "in vitro", "tested at": "not given", "notes": "8-mer, flanks averaged, mean of replicates", "reading": "higher = stronger binding"}
{"Strand": "AGCTCCTA", "E-score": -0.0628}
{"Strand": "CATAAAGG", "E-score": 0.256}
{"Strand": "CTTGATAA", "E-score": 0.219}
{"Strand": "CCCCGGAC", "E-score": -0.303}
{"Strand": "GCCGCCAA", "E-score": -0.256}
{"Strand": "GCTTGCCA", "E-score": -0.00143}
{"Strand": "GATAGCGA", "E-score": 0.0416}
{"Strand": "CTTTCTCC", "E-score": -0.182}
{"Strand": "AAGTGCTC", "E-score": -0.178}
{"Strand": "CAGGCCAC", "E-score": -0.295}
{"Strand": "GACTGAAA", "E-score": 0.0472}
{"Strand": "AGTTTATA", "E-score": 0.362}
{"Strand": "AAAGTGCT", "E-score": 0.121}
{"Strand": "TCGGTTAA", "E-score": 0.0795}
{"Strand": "GGCGCCGA", "E-score": -0.295}
{"Strand": "ATGCGATG", "E-score": -0.078}
{"Strand": "ACCCAAAA", "E-score": -0.0642}
{"Strand": "AGTGCGCG", "E-score": -0.28}
{"Strand": "GAAATTAC", "E-score": 0.283}
{"Strand": "CCAACGCG", "E-score": -0.294}
{"Strand": "ACTTGAGA", "E-score": 0.0997}
{"Strand": "GGCGTTCA", "E-score": -0.0741}
{"Strand": "CGACACTC", "E-score": -0.0765}
{"Strand": "AGGGTAAT", "E-score": 0.0898}
{"Strand": "GTGGCTTA", "E-score": 0.00025}
{"data": "Study 2", "target": "RNA binding protein fox-1 homolog 2, RRM domain, GST-SBP tag (RBFOX2, Homo sapiens, UniProt O43251-10, residues 100-194)", "technique": "RNA Bind-n-Seq", "molecule type": "RNA", "sample": "in vitro", "tested at": "365 nM", "notes": "natural RNA segment, single round, ends assumed", "reference": "no-protein control", "reading": "higher = stronger binding", "shared flanks, not repeated": "GGGAGUUCUACAGUCCGACGAUC … UGGAAUUCUCGGGUGCCAA", "Target sequence (chain)": "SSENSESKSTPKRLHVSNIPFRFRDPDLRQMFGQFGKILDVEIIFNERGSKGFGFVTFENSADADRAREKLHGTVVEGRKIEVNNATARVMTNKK"}
{"Strand": "GUUUCCUUUGGGCUGCCUUUCUAUCACAUUUGUGAAGGAUGGAUUUCUCAGCAGGGCUGAUGCUGCCCAAGAUAAGUAUAUCUGUCCACAUUAGUCAUUUUAGUCGAUUC", "RBNS enrichment (R)": 0.279}
{"Strand": "CUGUUCCCCUGCUCUGUUGCCUCUCUAAGGUAACAUUUAUAGAAGAAAUGGAAUGAAUCUCCAAGGCUUUUAGGACUGUCUGAAAAUUUGAGGCUGGGUGAAGUUAAAAC", "RBNS enrichment (R)": 0.49}
{"Strand": "CCAAACUCAAAGAAUGGGGUGGUGGGGGGCACCCUGUGAGGUGGCCCCUGAGAGGUGGGGGCCUCUCCAGGGCACAUCUGGAGUUCUUCUCCAGCUUACCCUAGGGUGAC", "RBNS enrichment (R)": 0.355}
{"Strand": "CUCCUGGGGCCAUUUCCUAAUGGUACUGUAAGCCAAGCAGCUUUGCUUCUGCCUCUGUUUCCAAGCCCACCCUUUUCCCCUGAGCUCAGGGUUAGGGAUGGGCGCUUUCC", "RBNS enrichment (R)": 0.24}
{"Strand": "CAAUGACAUUGUAUAAAGGGUGGUCUCAUAAGAUUAUACCAUAUUUUUACUGUACCUUUUCUAUGUCUAAAUAUACAAAUGUUUUACCAUUGUGUUACAGUUGCCUACAG", "RBNS enrichment (R)": 0.351}
{"Strand": "GCUCCUCUCAGCAUGAGGUGGAGCAGUGACCAGGUGGAGCAGUGACCAGGACGCCUCUGGCCCAGUGCUGCCCAGCCUCCCCGCCCGCUCCCAGGCGCCCCAUGUCCUCA", "RBNS enrichment (R)": 1.26}
{"Strand": "ACCAAGGGUACACGCAGGCAUGCACGGGUUUCCUGCCCAGCGACGGCUUAAGCCAGCCCCCGACUGGCCUGGCCACACUGCUCUCCAGUAGCACAGAUGUCUGCUCCUCC", "RBNS enrichment (R)": 0.413}
{"Strand": "GGUCCAGGACUCAGCUUUCUGCUUCAGCCUAAGCCAGUACUCCUUGUUUGAGGUAAAAGCCUUAAAAUUUAGCUCCCUAGCUCUUGAUUAGAAGCAAUUUGGAGUAAGUG", "RBNS enrichment (R)": 0.255}
{"data": "Study 3", "organism": "Saccharomyces cerevisiae", "observed": "cell growth", "technique": "competitive growth deep sequencing", "molecule type": "peptide", "notes": "peptide tiling library", "added": "cyclin F-Cln2 fusion", "reading": "direction not given"}
{"Sequence": "ALLRRLQDVANDRGSH", "enrichment score": -0.642}
{"Sequence": "KDDDKAWEYEERDRRS", "enrichment score": -0.407}
{"Sequence": "SDSTVTKLDFDLEP", "enrichment score": 0.629}
{"Sequence": "RDLFDCDFGDLTPLDF", "enrichment score": 1.4}
{"Sequence": "RSLKLDGLLEEN", "enrichment score": 2.68}
{"Sequence": "SPREGHMMDALYAQVK", "enrichment score": 0.344}
{"Sequence": "LKGRRLVFDN", "enrichment score": 4.24}
{"Sequence": "CFRCLLFSFSGRSGVE", "enrichment score": 1.1}
{"Sequence": "QDYERRLLRQIVIQNE", "enrichment score": -0.578}
{"Sequence": "PLRKAKRARLCSSSSS", "enrichment score": 2.02}
{"Sequence": "TRRRLFVENDSP", "enrichment score": 4.18}
{"Sequence": "KRRLDLETDHQY", "enrichment score": 3.67}
{"Sequence": "TSPGPVLLHPSPSTTQ", "enrichment score": 0.284}
{"Sequence": "GQLVIPLDELTLDTSF", "enrichment score": 2.2}
{"Sequence": "ESSTVSEEDYFSSHRD", "enrichment score": 0.656}
{"Sequence": "VLLKRLQDVVSERANH", "enrichment score": -0.455}
{"Sequence": "RVSGLLSWTLSRVLWL", "enrichment score": 0.323}
{"Sequence": "KPITLDTTDFQESFVT", "enrichment score": 0.42}
{"Sequence": "ISRLFPPRTPGWHQLQ", "enrichment score": -1.38}
{"Sequence": "IQKKLRFEDTLEFVGF", "enrichment score": 1.87}
{"Sequence": "LAKRALKYTD", "enrichment score": 0.829}
{"Sequence": "KSKHEEEEWTDDDLVE", "enrichment score": 1.49}
{"Sequence": "MNQELLSVGSKRRRTG", "enrichment score": 2.4}
{"data": "Study 4", "target": "Ras GTPase-activating protein-binding protein 1, full length (G3BP1, Homo sapiens, UniProt Q13283)", "technique": "RNA Bind-n-Seq", "molecule type": "RNA", "sample": "in vitro", "tested at": "200 nM", "notes": "whole 134-nt RNA, ends assumed", "added": "150 mM LiCl", "reference": "input library", "reading": "higher = stronger binding", "all molecules": "7-deaza-guanosine replaces G", "shared flanks, not repeated": "GGGAGUUCUACAGUCCGACGAUC … UGGAAUUCUCGGGUGUCAAGG", "UniProt Q13283, sequence (whole entry, looked up)": "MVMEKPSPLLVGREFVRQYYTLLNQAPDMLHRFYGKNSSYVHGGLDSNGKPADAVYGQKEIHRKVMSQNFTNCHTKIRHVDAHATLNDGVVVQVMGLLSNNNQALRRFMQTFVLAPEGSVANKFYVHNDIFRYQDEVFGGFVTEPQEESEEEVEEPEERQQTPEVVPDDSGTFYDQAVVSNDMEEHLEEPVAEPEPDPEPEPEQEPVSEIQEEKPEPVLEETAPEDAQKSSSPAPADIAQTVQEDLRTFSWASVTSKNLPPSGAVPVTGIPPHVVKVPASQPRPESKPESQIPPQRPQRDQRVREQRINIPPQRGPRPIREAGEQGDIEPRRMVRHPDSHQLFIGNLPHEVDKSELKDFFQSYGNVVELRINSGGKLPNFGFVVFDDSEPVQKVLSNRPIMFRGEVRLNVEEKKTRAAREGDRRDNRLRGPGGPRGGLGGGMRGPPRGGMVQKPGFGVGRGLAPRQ"}
{"Strand": "CCUGUGCUACACAUCGUAUGUACCGAAUCGGGGUUUUUUGGUUUUUUGGGGUUUUUUGGGAAAGUAUUAUGUUACGCCGUUCGGAUCUGC", "log2 enrichment": -0.00973}
{"Strand": "UCCUGUGCUACACAUCGUAUGUACCGAAUCGGAAAAAAGGGAAAAAAGGAAAAAAGGGGAAAGUAUUAUGUUACGCCGUUCGGAUCUGCA", "log2 enrichment": -0.792}
{"Strand": "AAGUCCUGUGCUACACAUCGUAUGUACCGAAUCGGGAAAGGGAGGGUUUUUUUGGGAAAGUAUUAUGUUACGCCGUUCGGAUCUGCACUU", "log2 enrichment": -0.329}
{"Strand": "UGCGGGACAAAGAAGUGGCCAAUCGAUACUUUACCACUGUCUGUGUGAGAUUACUGCUUGAGAGCAAAGAAAAGAAGAUCAGGGAAUUCA", "log2 enrichment": -0.295}
{"Strand": "UCCUCAAGUCCUGUGCUACACAUCGUAUGUACCGAAUCGGAGGUUUGGUGGAAAGUAUUAUGUUACGCCGUUCGGAUCUGCACUUCCAGC", "log2 enrichment": -1.06}
{"Strand": "ACCAUGCAGGUGGGCAUCUUUGGGAAGUGGGGCAACGGGGGGAUAGGGAGGGGGGUAACACUUUGGGAACAGGUGGUCCCAGGUCGUUUC", "log2 enrichment": 0.0637}
{"Strand": "CAAGUCCUGUGCUACACAUCGUAUGUACCGAAUCGGGUUUUUGGGUGGGAAAGGGAAAGUAUUAUGUUACGCCGUUCGGAUCUGCACUUC", "log2 enrichment": -0.0449}
{"Strand": "UGGGAGGUGGAUUUUGUUUAUUUUUUUAGCUCAUUUCCAGGGGUGGGAAUUUUUUUUUAAUAUGUGUCACGAAUAAAGUUGUUUUUGAAA", "log2 enrichment": 0.0838}
